Results pooled from the literature.
Numbered parts are unrelated; each lists some results of a single study.

Set 1
Target: Sal-like protein 4, full length isoform A (SALL4, Homo sapiens, UniProt Q9UJQ4, residues 1-1053)
Sequence of UniProt Q9UJQ4 (whole entry, looked up): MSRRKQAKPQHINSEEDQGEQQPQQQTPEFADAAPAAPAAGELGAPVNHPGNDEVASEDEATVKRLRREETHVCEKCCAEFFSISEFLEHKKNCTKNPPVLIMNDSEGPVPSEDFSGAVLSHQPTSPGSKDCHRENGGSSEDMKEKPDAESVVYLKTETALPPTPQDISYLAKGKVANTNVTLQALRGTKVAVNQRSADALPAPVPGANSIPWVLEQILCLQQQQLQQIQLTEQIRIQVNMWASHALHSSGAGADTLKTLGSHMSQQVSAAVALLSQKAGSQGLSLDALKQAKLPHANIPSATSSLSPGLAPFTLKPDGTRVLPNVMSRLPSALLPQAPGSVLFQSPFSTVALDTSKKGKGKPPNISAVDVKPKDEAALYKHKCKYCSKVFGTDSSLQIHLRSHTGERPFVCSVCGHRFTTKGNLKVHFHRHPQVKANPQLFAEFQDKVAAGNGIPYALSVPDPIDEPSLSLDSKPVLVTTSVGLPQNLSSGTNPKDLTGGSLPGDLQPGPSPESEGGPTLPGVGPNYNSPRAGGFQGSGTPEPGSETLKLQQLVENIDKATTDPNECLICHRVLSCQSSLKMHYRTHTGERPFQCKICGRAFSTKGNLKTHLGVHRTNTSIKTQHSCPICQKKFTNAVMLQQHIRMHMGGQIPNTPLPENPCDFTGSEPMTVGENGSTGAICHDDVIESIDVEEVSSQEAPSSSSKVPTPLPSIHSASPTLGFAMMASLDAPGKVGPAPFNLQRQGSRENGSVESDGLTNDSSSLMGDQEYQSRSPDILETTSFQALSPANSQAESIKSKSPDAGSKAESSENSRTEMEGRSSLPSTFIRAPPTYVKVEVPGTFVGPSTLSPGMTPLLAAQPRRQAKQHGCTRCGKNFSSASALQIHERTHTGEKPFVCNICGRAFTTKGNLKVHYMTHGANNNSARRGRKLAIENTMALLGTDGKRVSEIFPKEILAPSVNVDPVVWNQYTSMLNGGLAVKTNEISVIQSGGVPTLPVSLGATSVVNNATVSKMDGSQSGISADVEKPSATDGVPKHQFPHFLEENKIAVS
Technique: universal PBM
Molecule type: double-stranded DNA, one strand shown
Matrix: in vitro
Tested at: 600 nM
Notes: 8-mer, flanks averaged, mean of replicates
Reading: higher = stronger binding
Oligonucleotide | E-score
GCGCTTGA | -0.0816
ACTTAGTG | 0.0977
GATTGGCA | 0.00988
ATGCTTTC | 0.169
ACGAGTTA | 0.161
AAAGGTCG | 0.0272
CCCCGGGC | -0.43
ACTGCAGG | -0.219
GACTCTCA | -0.0999
CGTTAGAG | -0.00675
CGCCTTGC | -0.186
ATGAATGA | 0.305
AACAAATC | 0.278
CCAAATCC | -0.089
CGAACGAG | -0.052
ATAATCTC | 0.289
AGCGTCTA | -0.0534
CCCTAACC | -0.277
CAGCGGCC | -0.33
CAGTTGCA | -0.0598
TCTCCGAA | -0.0701
AAACTTTC | 0.2

Set 2
Target: RING finger protein unkempt homolog, zinc fingers 1-6, GST-SBP tag (UNK, Homo sapiens, UniProt Q9C0B0, residues 30-357)
Technique: RNA Bind-n-Seq
Molecule type: RNA
Matrix: in vitro
Tested at: not given
Notes: RNA with constant flanks, human and mouse sites, ends assumed
Baseline: input RNA pool
Reading: higher = stronger binding
All sequences stand within: GGGAGUUCUACAGUCCGACGAUC … CAACAGAGGAUUGAGCAUCA
Construct (chain): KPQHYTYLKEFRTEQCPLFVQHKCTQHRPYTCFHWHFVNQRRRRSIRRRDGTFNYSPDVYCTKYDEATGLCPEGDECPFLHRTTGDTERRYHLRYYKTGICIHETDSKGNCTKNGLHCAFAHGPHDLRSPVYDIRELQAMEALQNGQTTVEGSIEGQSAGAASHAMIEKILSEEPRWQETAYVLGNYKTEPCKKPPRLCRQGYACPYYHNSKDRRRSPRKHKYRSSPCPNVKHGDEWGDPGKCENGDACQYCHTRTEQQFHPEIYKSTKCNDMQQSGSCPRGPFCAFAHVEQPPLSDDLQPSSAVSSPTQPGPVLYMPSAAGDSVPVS
Oligonucleotide | bound/input enrichment [ratio]
AUUCAGCACUCCCAACCAGACCCUGGGAUGGGUGAGAGAAAAGCGGGGGUGUCUCUCCCCUCCCCACUCUGCCCAGCUCUCAUCACUGUCAGACCCACCAGAGCUGAGGGCGGAGGGAUU | 0.331
AGGGCCGCAACUGCCGUCCAGGCUUAAGAGGGCUUCCGCGAUGCCUUUGUCCGGAGUAGUCAGUCAGCUCCUGGAACUGUGAGUCCGCCCCAGCUCCCAGUCCCUUCCCUCACGUCCUGC | 0.149
CCUUGUUCACUGGAUUGUCUGGGGUGACUUGGGCUCAUAUCCACAAUAUUUGGUAUACGGUAGUAGGUUGGUGGGGGUGGGGGUGGGGAGCUAGGAUAUAGGGCAGGGAUACAUACAGUU | 25.8
CGAACGGGCUCUCUGCGGAUCUCACACUUGCCCAGUGUCUCUUGGCUAGACCUCCAGUGACUGAUGAGGUCAUUCACUGCUGAGCAGGGACGCACUGCAAGUAAAACAACCCUCGUGGAA | 0.0435
GUGUUUGAACUAUCCAGGCUCAGGACAGCCUCUUGAAAAAAAAUUUUUUAUUAAUAAAGCGGAUUUGAGUGGGAUCUUUUUCCUAAUCGAUUACGGGCCCACACGUAUGGGAAGAAUUCU | 0.38
ACAAGAAUGCAGAAGGCUGGAAUUCCUUGUCCAACAGUUGUACUGCUUAAGAAGCACAUUUUAGUUAUGUCUUUCAUUGGCCAUGAUCAAGUUCCAGCCCCUAAAUUAAAAGAAGUAAAG | 0.355
ACUUGGCUGCCUCGCAGGCAGCCUCCGUUCCUCCCGCUCUCUUGCGCGUGUGCUUUUGUUUUUUAUUUUGAACAGACGUUUUAAAAGAAAAAAAAACAACUACCUUCUGUCCUAGAAGAC | 0.169
CCAGGCAUGAAAGUCCAAGUGCGGUAUGGACGAGGGAAAAAUCAAAAAAUGUAUGAAGCUAGUAUAAAAGAUUCUGAUGUCGAAGGUGGAGAGGCCCUUUACUUGGUGCAUUACUGCGGA | 2.93
GGGAACUCCACUCGGGGAACUCCUUUCCAAGCUGACCUCAGUUUUCUCACAAGAACCCAGUUAGCUGAUGUUUUAUUGUAAUUGUCUUAAUUUGCUAAGAACAAGUAAUAAGUAAAUUUU | 0.94
AGUCAUGAACCGGAGUUUGACUAUUUGAAAAGUCUAGAAAUUGAGGAAAAAAUUAAUAAAAUUAGGUGGUUACCACAACAGAAUGCUGCUCAUUUUCUACUGUCUACAAAUGAUAAAACU | 79.8
GGCCAUGGUGAUGACAACCAUGCAGAUGCUGACCGAUCACCUAUAUUUCUUCAGUUUAUUGAUUGUGUUUGGCAGAUGACAAGACAGUUCCCUUCAGCAUUUGAGUUUAAUGAAUUAUUC | 0.473

Set 3
Target: RNA binding protein fox-1 homolog 2, RRM domain, GST-SBP tag (RBFOX2, Homo sapiens, UniProt O43251-10, residues 100-194)
Technique: RNA Bind-n-Seq
Molecule type: RNA
Matrix: in vitro
Tested at: 365 nM
Notes: natural RNA segment, single round, ends assumed
Baseline: no-protein control
Reading: higher = stronger binding
All sequences stand within: GGGAGUUCUACAGUCCGACGAUC … UGGAAUUCUCGGGUGCCAA
Target sequence (chain): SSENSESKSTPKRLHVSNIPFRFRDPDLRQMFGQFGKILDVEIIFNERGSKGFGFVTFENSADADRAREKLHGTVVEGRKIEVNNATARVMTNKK
Oligonucleotide | RBNS enrichment (R)
UCUCACCCAUGAGGGACAACAGGUGACUCAGAAAGGCAGUGUCACAACUAGAACACUCUGCCUUGGUCUCCUUAUCCAGUGCUCACCCACAGUAUGAAAUGGAUGCUUCC | 0.239
CACCCUGCCUGAUGAGCCCUUCACUUUGUCCUCUUCCUGCCUCCUGGGCUCUGCCUUAAUCUCCUGGACUCCGGAGGACUGAGCCCCCACCGGAGCUGGCUGGGGCUUGG | 0.885
AGAACCAAUCUAAAAUACUAAAAAGGCAGAAACUUUUAAAAUUAGAAAUUGGAUAAUUUUUAAGAAUCUUUAGAGAAAACAUUGGUUUAUCAUAGUCUUUUUCUUUCAUU | 1.09
UGGGAGACUCACCCCACACGCCCUCCCCAGGGCACGUGCUGGUGUUUCCUCACGCUGGUUUCUCUGGUUUGGGGCUCCACGGCCAAGUCCUUGUUGGCUGAGGGCAGGAC | 0.248
GUGAACGUUAGCUUUUCUCAAACCCACACAAAUCCUUGAACAGGAAUUGUUUAUAGUGACCACACUAAUUAUUUUAACUGUACACAUCAGUUUAACAUCUUUUAAAAUUU | 0.699
GCCAGUCCCCCUGCCCCAGGGCUCCCGGCUAUGGGGGCACUGAGGACCAGCCAUUGAGGGGUGGACCCUCAGAAGGCGUCACAACAACCUGGUCACAGGACUCUGCCUCC | 0.282
ACUUAAUUGAUUGGUUGUCCCAAGUGUUGCUCUUACUUGAUUUGCCAAAUGCCUCCUGCUUCUCGUUAUAGGACUGAGUGAGGUCCUCAUAGCUCUGUGCUCUGGGCAGC | 0.264
UGCCUUGCAGAUAUUUCGGUACCGCUGAGUUUUCUUUCUUUUCCCAAGUGGGAAGAAGGCACACCUAGCUUGGACCCACCCACAAGCUGCACUGUGUGACCUCUCUGUUG | 0.233
UCCUGCGGAAGCAGUGACCUCUGACCCCUGGUGACCUUCGCUUUGAGUGCCUUUUGAACGCUGGUCCCGCGGGACUUGGUUUUCUCAAGCUCUGUCUGUCCAAAGACGCU | 0.154
ACGUUGGAUUUUCGUACACUUCCUUAUACCUUACAUCUUUUAAUGGUCGUUGACUGCUUCACACUUACCUUGCUGAACAUGAACUUUCAGACCUAGAAGUCACUUUUAUG | 0.718
UCUGAUUUCUGCAGUUCCCGCCAGCCUCCAACACGGGGACUCUGCCGUAACUGGAAUCUUCAUAGGUCAUAUUGAAAUCUUCAAGGUGACCAUGCCCCACCGGGGUGCUG | 0.205
CCUCUGAUGUCGGCGAAUCCUGAAGCACCUGCACCCGAAUCUGGGGCCCAGGGCUGCCCGACCCCCACUCCCAUGGAUGAUGAGGAGCCCCAGACACCAGCUCCUCUGGC | 1.48

Set 4
Target: Fragile X messenger ribonucleoprotein 1, C-terminal low-complexity region (Fmr1, Mus musculus, UniProt P35922)
Technique: RNA Bind-n-Seq
Molecule type: RNA
Matrix: in vitro
Tested at: 200 nM
Notes: whole 134-nt RNA, ends assumed
With: 150 mM LiCl
Baseline: input library
Reading: higher = stronger binding
Library: 7-deaza-guanosine replaces G
All sequences stand within: GGGAGUUCUACAGUCCGACGAUC … UGGAAUUCUCGGGUGUCAAGG
Oligonucleotide | log2 enrichment
CAAGUCCUGUGCUACACAUCGUAUGUACCGAAUCGGAGGAAAAAAAGGAAAAAGGAAAGUAUUAUGUUACGCCGUUCGGAUCUGCACUUC | -0.312
CCUCAAGUCCUGUGCUACACAUCGUAUGUACCGAAUCGGGUGGGAGGGAGGGAAAGUAUUAUGUUACGCCGUUCGGAUCUGCACUUCCAG | -0.738
UCCUGUGCUACACAUCGUAUGUACCGAAUCGGGGUUUGGGGUUUUUGGGGAAAAAGGGGAAAGUAUUAUGUUACGCCGUUCGGAUCUGCA | -0.748
UAACUUUAGAGGAGGAUCUGAUGGAUAUGGCAGUGGACGUGGAUUUGGGGAUGGCUAUUAUGGGUAUGGAGGAGGACCUGGAGGUGGCAA | 0.358
AAGUCCUGUGCUACACAUCGUAUGUACCGAAUCAAACCCAAACCCAAACCCCCAAAAAAGUAUUAUGUUACGCCGUUCGGAUCUGCACUU | -0.356
ACCAUGCAGGUGGGCAUCUUUGGGAAGUGGGGCAAGGGGGGGAUAGGCAGGGGGGUAACACUUUGGGAACAGGUGGUCCCAGGUCGUUUC | 1.13
GUCCUGUGCUACACAUCGUAUGUACCGAAUCGGCCCCCCGGGCCCCCCGGGCCCCCCGGAAAGUAUUAUGUUACGCCGUUCGGAUCUGCA | 0.415
UGGGAGGUGGAUUUUGUUUAUUUUUUUAGCUCAUUUCCAGGGGUGUGAAUUUUUUUUUAAUAUGUGUCAUGAAUAAAGUUGUUUUUGAAA | -0.387
GCAGGAAGUAAAAACAAAUGGAAAUGCAAAGGAUAGUGGCAGGGGUGGGGGUUGCUAAGGAAAGGGUGGGAUGGGAGUGGGUAAAGAGUU | 1.65
CACAGACAACACGCACACACACAGACACAGAGGGAAGGGGUUGGGAUGGGGACAGGGUGCACAGCAGGGCGGGGUAGGACCCCAGCCCCU | 0.469
UCCUGUGCUACACAUCGUAUGUACCGAAUCGGGGAAAAAGGGGAAAAAAAGGGGUGGGGAAAGUAUUAUGUUACGCCGUUCGGAUCUGCA | -0.544

A few entries again (set 2):
Oligonucleotide | bound/input enrichment [ratio]
ACUUGGCUGCCUCGCAGGCAGCCUCCGUUCCUCCCGCUCUCUUGCGCGUGUGCUUUUGUUUUUUAUUUUGAACAGACGUUUUAAAAGAAAAAAAAACAACUACCUUCUGUCCUAGAAGAC | 0.169
GGGAACUCCACUCGGGGAACUCCUUUCCAAGCUGACCUCAGUUUUCUCACAAGAACCCAGUUAGCUGAUGUUUUAUUGUAAUUGUCUUAAUUUGCUAAGAACAAGUAAUAAGUAAAUUUU | 0.94
AGUCAUGAACCGGAGUUUGACUAUUUGAAAAGUCUAGAAAUUGAGGAAAAAAUUAAUAAAAUUAGGUGGUUACCACAACAGAAUGCUGCUCAUUUUCUACUGUCUACAAAUGAUAAAACU | 79.8
